{"data": "Measurements gathered from unrelated publications", "note": "± gives the spread as reported.", "chain of UniProt O95819 (whole entry, looked up)": "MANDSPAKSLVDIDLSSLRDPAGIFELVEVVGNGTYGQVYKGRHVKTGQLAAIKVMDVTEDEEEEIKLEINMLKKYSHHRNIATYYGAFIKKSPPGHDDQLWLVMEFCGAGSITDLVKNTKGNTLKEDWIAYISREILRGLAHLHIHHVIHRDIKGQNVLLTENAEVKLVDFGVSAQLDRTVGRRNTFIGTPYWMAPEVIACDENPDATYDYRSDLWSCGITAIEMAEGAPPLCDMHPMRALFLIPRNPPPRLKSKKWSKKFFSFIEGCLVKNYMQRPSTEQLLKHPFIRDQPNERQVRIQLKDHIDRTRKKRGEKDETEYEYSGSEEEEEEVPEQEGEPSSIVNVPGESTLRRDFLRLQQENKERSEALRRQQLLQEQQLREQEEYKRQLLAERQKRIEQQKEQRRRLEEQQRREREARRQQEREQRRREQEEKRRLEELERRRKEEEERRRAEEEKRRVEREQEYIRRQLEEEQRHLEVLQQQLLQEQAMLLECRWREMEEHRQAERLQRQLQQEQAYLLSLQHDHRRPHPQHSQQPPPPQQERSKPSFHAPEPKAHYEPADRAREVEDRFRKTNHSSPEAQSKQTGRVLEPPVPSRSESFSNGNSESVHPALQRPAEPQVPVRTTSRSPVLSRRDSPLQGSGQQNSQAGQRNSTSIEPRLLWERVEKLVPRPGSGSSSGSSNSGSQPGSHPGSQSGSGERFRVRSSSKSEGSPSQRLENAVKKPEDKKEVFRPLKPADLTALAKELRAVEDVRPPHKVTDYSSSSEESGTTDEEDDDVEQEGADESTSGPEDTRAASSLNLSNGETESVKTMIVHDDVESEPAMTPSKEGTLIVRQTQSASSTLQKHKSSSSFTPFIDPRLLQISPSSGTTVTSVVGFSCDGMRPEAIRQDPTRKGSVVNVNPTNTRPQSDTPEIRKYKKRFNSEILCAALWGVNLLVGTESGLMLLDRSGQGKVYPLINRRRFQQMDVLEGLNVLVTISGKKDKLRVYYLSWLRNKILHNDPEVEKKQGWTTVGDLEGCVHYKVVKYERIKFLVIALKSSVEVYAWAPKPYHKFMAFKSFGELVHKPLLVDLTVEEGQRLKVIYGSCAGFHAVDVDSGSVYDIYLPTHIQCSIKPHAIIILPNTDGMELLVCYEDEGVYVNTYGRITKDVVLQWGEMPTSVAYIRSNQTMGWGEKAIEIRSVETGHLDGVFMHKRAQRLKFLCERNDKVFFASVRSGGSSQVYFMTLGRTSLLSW"}
{"Compound": "Nc1ncc(-c2cc(-c3cnn(CC(F)(F)F)c3)ncc2F)nc1C(=O)NC1CNCC(F)C1 (stereo not drawn)", "tested on": "BRK", "assay": "KINOMEscan competition binding", "conditions": "1 µM", "scale": "baseline: DMSO control", "measurement": "remaining binding", "value": "81%"}
{"Compound": "C=C(NC(=O)c1csc(-c2ccc(NC(=O)CCCCCBr)cc2)n1)C(=O)NC(=C)C(=O)OC", "tested on": "C4-2", "assay": "cell growth or viability", "measurement": "EC50", "value": "7.1 µM"}
{"Compound": "CNS(=O)(=O)Nc1nccc(Cc2c(C)c3ccc(Oc4ncccc4F)cc3oc2=O)c1F", "tested on": "HCC38", "assay": "cell viability", "conditions": "7 days", "measurement": "IC50", "value": "> 1 µM"}
{"Compound": "Cc1cccc(-c2cccc(C)n2)n1.Cc1cccc(-c2cccc(C)n2)n1.F[P-](F)(F)(F)(F)F.F[P-](F)(F)(F)(F)F.[Ru+2].c1ccc2c(-c3nc4c5cccnc5c5ncccc5c4[nH]3)c3ccccc3cc2c1", "tested on": "SK-MEL-28", "assay": "cell viability", "conditions": "1% O2, with: green light 523 nm, 100 J/cm2", "measurement": "EC50", "value": "26.4 ± 1 µM"}
{"Compound": "Cc1nn(-c2cccc(N)c2)c(=O)c2cnc(Nc3ccc(N4CCNCC4)cc3)nc12", "tested on": "Mitogen-activated protein kinase kinase kinase kinase 4 (MAP4K4, Homo sapiens, UniProt O95819)", "assay": "SelectScreen kinase", "measurement": "IC50", "value": "0.435 µM"}
{"Compound": "COC(=O)[C@H](C)NC(=O)[C@H](C)NC(=O)c1csc(-c2cccnc2)n1", "tested on": "SCC-90", "assay": "cell viability", "measurement": "EC50", "value": "> 30 µM"}
{"Compound": "CCCCCCCCCCCCNC(=S)NCCCC[C@H](NS(C)(=O)=O)C(=O)N[C@H](C)C(=O)N[C@@H](CCCNC(=N)N)C(N)=O", "tested on": "Jurkat", "assay": "cell growth or viability, MTT", "conditions": "72 h", "measurement": "EC50", "value": "3.24 to 6.12 µM"}
{"Compound": "Cc1ncsc1-c1ccc(C(C)NC(=O)C2CC(O)CN2C(=O)C(NC(=O)CCCCCCCCCCN2CCCC(Nc3ncc(Cl)c(Nc4ccccc4S(=O)(=O)C(C)C)n3)C2)C(C)(C)C)cc1 (stereo not drawn)", "tested on": "22Rv1", "assay": "RNA-seq, item: SH3PXD2B mRNA", "conditions": "concentration not given", "scale": "baseline: DMSO", "measurement": "log2 fold change", "value": -1.72}
{"Compound": "COC1CN([C@H]2CC[C@H]([C@@]3(C)Oc4c(Cl)cc(C(=O)NCc5c(SC)cc(C)[nH]c5=O)c(C)c4O3)CC2)C1", "assay": "RNA-seq, item: TRPC1 mouse homolog", "system": "mouse, HT-1376 xenograft, whole blood", "conditions": "dose not given", "scale": "baseline: vehicle", "measurement": "log2 fold change", "value": 0.348}
{"Compound": "[Cl-].[Cl-].[Ru+2].c1ccc(-c2ccccn2)nc1.c1ccc(-c2ccccn2)nc1.c1ccc2cc3nc4c5cccnc5c5ncccc5c4nc3cc2c1", "tested on": "SK-MEL-28", "assay": "cell viability", "conditions": "dark, hypoxia 1 % oxygen", "measurement": "EC50", "value": "136 ± 3 µM"}
{"Compound": "C=C(NC(=O)c1csc(-c2cccnc2)n1)C(=O)NC(=C)C(=O)OC", "tested on": "SCC-90", "assay": "cell viability", "measurement": "EC50", "value": "6.7 µM"}
{"Compound": "Cc1cccc(-c2cccc(C)n2)n1.Cc1cccc(-c2cccc(C)n2)n1.F[P-](F)(F)(F)(F)F.F[P-](F)(F)(F)(F)F.[Ru+2].c1ccc(-c2nc3c4cccnc4c4ncccc4c3[nH]2)cc1", "tested on": "SK-MEL-28", "assay": "cell viability", "conditions": "normoxia, with: green light 523 nm, 100 J/cm2", "measurement": "EC50", "value": "27 ± 1.1 µM"}
{"Compound": "[Cl-].[Cl-].[Ru+2].c1cnc2c(c1)ccc1cccnc12.c1cnc2c(c1)ccc1cccnc12.c1csc(-c2ccc(-c3nc4c5cccnc5c5ncccc5c4[nH]3)s2)c1", "tested on": "SK-MEL-28", "conditions": "normoxia, with: visible light 400-700 nm, 100 J/cm2", "measurement": "EC50", "value": "~0.6 µM"}
{"Compound": "CCCCCCCCCCCCNC(=S)NCCCC[C@H](NC(=O)OCc1ccccc1)C(=O)N[C@H](C)C(=O)N[C@@H](CCCNC(=N)N)C(N)=O", "tested on": "Jurkat", "assay": "cell growth or viability, MTT", "conditions": "72 h", "measurement": "EC50", "value": "1.17 to 6.89 µM"}
{"Compound": "Cc1cccc(-c2cccc(C)n2)n1.Cc1cccc(-c2cccc(C)n2)n1.F[P-](F)(F)(F)(F)F.F[P-](F)(F)(F)(F)F.[Ru+2].c1ccc2c(c1)Cc1cc(-c3nc4c5cccnc5c5ncccc5c4[nH]3)ccc1-2", "tested on": "SK-MEL-28", "assay": "cell viability", "conditions": "1% O2, with: blue light 453 nm, 100 J/cm2", "measurement": "EC50", "value": "21.5 ± 0.6 µM"}
